{"data": "Published values collected from several papers", "JAK1 JH1 kinase domain": "Tyrosine-protein kinase JAK1, JH1 kinase domain (JAK1, Homo sapiens, UniProt P23458)", "JAK1": "Tyrosine-protein kinase JAK1 (JAK1, Homo sapiens, UniProt P23458)", "note": "Each line is one published result; not all experiments were run side by side.", "sequence of UniProt P23458 (whole entry, looked up)": "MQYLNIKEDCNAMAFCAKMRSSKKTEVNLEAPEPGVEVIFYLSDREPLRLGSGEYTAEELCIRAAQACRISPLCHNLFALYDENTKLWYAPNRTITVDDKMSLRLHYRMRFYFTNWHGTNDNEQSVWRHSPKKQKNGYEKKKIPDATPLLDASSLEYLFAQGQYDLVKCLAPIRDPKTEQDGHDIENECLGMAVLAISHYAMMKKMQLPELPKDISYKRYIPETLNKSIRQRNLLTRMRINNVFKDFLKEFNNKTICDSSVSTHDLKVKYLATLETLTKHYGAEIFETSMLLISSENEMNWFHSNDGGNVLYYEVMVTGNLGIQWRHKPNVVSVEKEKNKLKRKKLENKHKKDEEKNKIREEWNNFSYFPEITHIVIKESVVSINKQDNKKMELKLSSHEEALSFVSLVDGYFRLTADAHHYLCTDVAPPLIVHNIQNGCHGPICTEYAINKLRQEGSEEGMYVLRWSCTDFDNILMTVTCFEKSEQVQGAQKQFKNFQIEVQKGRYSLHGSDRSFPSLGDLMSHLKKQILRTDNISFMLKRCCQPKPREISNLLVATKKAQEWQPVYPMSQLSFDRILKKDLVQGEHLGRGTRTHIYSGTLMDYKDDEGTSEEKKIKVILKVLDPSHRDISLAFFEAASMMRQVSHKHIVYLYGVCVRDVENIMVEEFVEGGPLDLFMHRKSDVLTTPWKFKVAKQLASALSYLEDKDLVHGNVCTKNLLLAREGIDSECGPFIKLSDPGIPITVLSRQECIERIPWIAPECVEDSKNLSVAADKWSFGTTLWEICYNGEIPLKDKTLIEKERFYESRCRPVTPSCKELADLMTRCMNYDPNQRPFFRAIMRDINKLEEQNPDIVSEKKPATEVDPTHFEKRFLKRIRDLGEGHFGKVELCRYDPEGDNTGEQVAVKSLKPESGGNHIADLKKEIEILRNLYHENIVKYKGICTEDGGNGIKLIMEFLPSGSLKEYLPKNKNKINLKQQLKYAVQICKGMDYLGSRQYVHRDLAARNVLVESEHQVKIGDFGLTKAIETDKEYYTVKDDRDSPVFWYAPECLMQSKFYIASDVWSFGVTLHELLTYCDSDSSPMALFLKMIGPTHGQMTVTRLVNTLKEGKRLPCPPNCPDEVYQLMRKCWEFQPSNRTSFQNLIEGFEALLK"}
{"Compound": "C=CC(=O)N1CCC(COCC(=O)N2CCN(c3nc(-c4cnc(N)nc4C(F)F)nc(N4CCOC[C@@H]4C)n3)CC2)CC1", "target": "JAK1 JH1 kinase domain", "test": "KINOMEscan", "setting": "1 µM", "how to read": "baseline: DMSO control", "endpoint": "remaining binding", "value": "91%"}
{"Compound": "C=CC(=O)N1CCC(C(=O)NCC(=O)N2CCN(c3nc(-c4cnc(N)nc4C(F)F)nc(N4CCOCC4)n3)CC2)CC1", "target": "JAK1 JH1 kinase domain", "test": "KINOMEscan", "setting": "1 µM", "endpoint": "remaining binding", "value": "100%"}
{"Compound": "Cc1cc(-c2ccnc3[nH]cc(F)c23)cc(F)c1[C@@]1(O)[C@H](C)CN(C(=O)CN)C[C@@H]1C", "target": "JAK1", "test": "ATP/ADP probe binding, KiNativ", "system": "HEK293T lysate", "setting": "1 µM, activation loop domain 1", "endpoint": "probe labelling inhibition", "value": "31%"}
{"Compound": "C[C@@H](c1ccc(-n2cnc3c(N)ncnc32)cc1)N1CCc2nn(C)c(Cc3ccccc3)c2C1=O", "target": "JAK1 JH1 kinase domain", "test": "KINOMEscan", "setting": "0.1 µM", "how to read": "baseline: DMSO control", "endpoint": "remaining binding", "value": "99%"}
{"Compound": "[2H]c1cc(C)c(NC(=O)c2cnc(Nc3cc(N4CCCCC4)nc(C)n3)s2)c(Cl)c1", "target": "JAK1", "setting": "0.01 µM", "endpoint": "inhibition", "value": "< 30%"}
{"Compound": "Cc1cc(-c2ccnc3[nH]cc(F)c23)cc(F)c1[C@@]1(O)[C@H](C)CN(C2CCS(=O)(=O)CC2)C[C@@H]1C", "target": "JAK1", "test": "ATP/ADP probe binding, KiNativ", "system": "HEK293T lysate", "setting": "10 µM, activation loop domain 1", "endpoint": "probe labelling inhibition", "value": "11.4%"}
{"Compound": "COc1cc(-c2cncc3c2CN(C)Cc2cc(N4CCNCC4)ccc2-3)cc(OC)c1OC", "target": "JAK1", "test": "kinase activity", "setting": "1 µM, human enzyme, added: ATP 10 µM", "how to read": "baseline: DMSO control", "endpoint": "remaining activity", "value": "90%"}
{"Compound": "Cc1cc(Nc2cc(N3CCN(C)CC3)nc(Sc3ccc(NC(=O)C4CC4)cc3)n2)[nH]n1", "target": "JAK1", "test": "kinase activity, KinaseProfiler", "setting": "0.03 µM, species human", "how to read": "baseline: control", "endpoint": "remaining activity", "value": "96%"}
{"note": "Excerpt of the above:"}
{"Compound": "C[C@@H](c1ccc(-n2cnc3c(N)ncnc32)cc1)N1CCc2nn(C)c(Cc3ccccc3)c2C1=O", "target": "JAK1 JH1 kinase domain", "test": "KINOMEscan", "setting": "0.1 µM", "how to read": "baseline: DMSO control", "endpoint": "remaining binding", "value": "99%"}
